{"data": "Measurements collected from several papers", "note": "A part holds a random share of what one study measured."}
{"data": "Set 1", "target": "RING finger protein unkempt homolog, zinc fingers 1-6, GST-SBP tag (UNK, Homo sapiens, UniProt Q9C0B0, residues 30-357)", "method": "RNA Bind-n-Seq", "molecule type": "RNA", "sample": "in vitro", "tested at": "not given", "setting": "RNA with constant flanks, human-mouse chimeric sites, ends assumed", "baseline": "input RNA pool", "direction": "higher = stronger binding", "sequence of UniProt Q9C0B0 (30-357, looked up)": "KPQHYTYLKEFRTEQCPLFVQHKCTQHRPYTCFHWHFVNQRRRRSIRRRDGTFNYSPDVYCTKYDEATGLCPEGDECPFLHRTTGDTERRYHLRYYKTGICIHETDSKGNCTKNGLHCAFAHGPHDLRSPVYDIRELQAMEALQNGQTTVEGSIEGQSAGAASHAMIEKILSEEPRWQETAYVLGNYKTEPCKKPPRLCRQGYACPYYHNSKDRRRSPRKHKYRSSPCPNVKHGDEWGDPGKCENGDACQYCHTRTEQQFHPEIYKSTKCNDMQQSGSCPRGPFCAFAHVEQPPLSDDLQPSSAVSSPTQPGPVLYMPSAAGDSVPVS"}
{"Oligonucleotide": "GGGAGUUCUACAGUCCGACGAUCAGCGUUCAGGAAUUCAUGACCUUUACAAGUCAACUGAUUGUGGAACGCUCGGGGAAAGGCAGCAGAGCUUCUGUCAAAGAACAAGAGUAUCUUUGCCAUGUCUACGUCCGGAAUGAUAGUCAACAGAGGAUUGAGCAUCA", "bound/input enrichment": "0.123 ratio"}
{"Oligonucleotide": "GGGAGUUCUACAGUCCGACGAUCUUUCUACUGCAGCAAACGAUGCUAAGAAUUAAGGAUCCUAAGAAGUCACUGGAUUUUUAUACGAGGGUUCUUGGAAUGACCCUCCUGCAGAAGCUUGACUUCCCUGCUAUGAAGUUCUCGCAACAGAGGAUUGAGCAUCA", "bound/input enrichment": "0.108 ratio"}
{"Oligonucleotide": "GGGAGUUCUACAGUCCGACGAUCUAAAUUAGGGCUGCCGUUUUCUGUUUCUCCCUGGGCUGCGGAAAGCCAGGCGGUUUUAUCUAGCUUAUACAAGGCUGCUGGUGUUCCCUCUUUUUUUCCACGAGGGUGUUUUUGGCUGCACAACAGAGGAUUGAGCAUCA", "bound/input enrichment": "2.93 ratio"}
{"Oligonucleotide": "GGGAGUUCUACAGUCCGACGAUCUUUGUAUUCAUGUUAAGCACACGUGCUGGUGGUCUGGGCAUCAAUCUUGCAACUGCUGAUGUAGUCAUUUUAUAUGACUCAGAUUGGAAUCCCCAAGUUGAUCUUCAGGCUAUGGACCGUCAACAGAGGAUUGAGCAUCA", "bound/input enrichment": "0.152 ratio"}
{"Oligonucleotide": "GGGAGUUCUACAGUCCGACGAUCAAAGAACCUCUCUCUGAUGAAGAUGAGGAAGACAAUGAUGAUGUUGAACCCAUUUCUGAAUUUCGAUUUGUGCCUAGUGAUAAGUCAGCGUUGGAGGCGAUGUUCACAGCAAUGUGUGAGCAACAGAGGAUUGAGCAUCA", "bound/input enrichment": "0.429 ratio"}
{"Oligonucleotide": "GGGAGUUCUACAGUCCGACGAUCACUCUUGACUCUUUCCAUCCUCUUCCUUUCCCUCUUGAUAUUCAAGGCCAUGAAUCCCAAAAUAGCUGUCUUAGUGGCUAGCACCCACCCAAACUGAGAAUAAAUCCACCCCAGUGUCUCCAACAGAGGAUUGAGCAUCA", "bound/input enrichment": "1.13 ratio"}
{"Oligonucleotide": "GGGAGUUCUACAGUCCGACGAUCUCUUAACUUAUUCAUUUAACUUAUUUUUAUAGCUAGAUAAAUAUUGUUAGUCUUAGACAAUAGCUCACAUUUUUUGAGAAGCAUGCCCUCCCUGUCCAUUGGGCCCAUAACAUGACCCAGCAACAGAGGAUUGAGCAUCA", "bound/input enrichment": "19.2 ratio"}
{"Oligonucleotide": "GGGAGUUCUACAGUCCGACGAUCUGGCGCCUGCGCUCCCCACUCGUGUUUUUAAGUGUAUUUUUAUAAGAUACAUGUAUUUGUAAUAGAUCUUUUGUUACAUAAUGCUGAAAUGCUACUGGAGAUUAUGAAAAAAUGUUAAAUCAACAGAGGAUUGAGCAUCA", "bound/input enrichment": "0.326 ratio"}
{"data": "Set 2", "target": "Histone acetyltransferase KAT6A, winged helix 1, GST fusion (KAT6A, Homo sapiens, UniProt Q92794, residues 1-85)", "method": "protein binding microarray", "molecule type": "double-stranded DNA, one strand shown", "sample": "in vitro", "tested at": "not given", "setting": "8-mer, flanks averaged, mean of 2 arrays, mostly near background", "baseline": "not given", "direction": "higher = stronger binding", "Residues (chain)": "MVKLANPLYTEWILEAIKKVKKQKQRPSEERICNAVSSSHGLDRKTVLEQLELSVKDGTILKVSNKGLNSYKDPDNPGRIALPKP"}
{"Oligonucleotide": "AGCCCGTC", "E-score": 0.334}
{"Oligonucleotide": "AAACCGGA", "E-score": -0.0426}
{"Oligonucleotide": "AACGGCTA", "E-score": 0.247}
{"Oligonucleotide": "CAAATCAC", "E-score": -0.0268}
{"Oligonucleotide": "ATCAACAG", "E-score": -0.0454}
{"Oligonucleotide": "TCATTCAA", "E-score": -0.166}
{"Oligonucleotide": "AGAGGCCA", "E-score": -0.105}
{"Oligonucleotide": "ACATAAGT", "E-score": -0.206}
{"Oligonucleotide": "CAAATAGG", "E-score": -0.128}
{"Oligonucleotide": "CGGGTTAA", "E-score": 0.301}
{"Oligonucleotide": "TAGGATAA", "E-score": -0.117}
{"Oligonucleotide": "CAAGCCGA", "E-score": 0.12}
{"Oligonucleotide": "ACACCTAC", "E-score": 0.0353}
{"Oligonucleotide": "ATACGAAG", "E-score": -0.0104}
{"Oligonucleotide": "TAACCAGA", "E-score": -0.149}
{"Oligonucleotide": "CAGAGATA", "E-score": -0.155}
{"data": "Set 3", "target": "Interferon regulatory factor 7, full length, phosphomimetic (IRF7, Homo sapiens, UniProt Q92985, residues 1-503, S471D/S472D/S475D/S476D/S477D/S483D/S484D/S487D)", "method": "protein-binding microarray", "molecule type": "double-stranded DNA, one strand shown", "sample": "in vitro", "tested at": "2200 nM top", "setting": "60-bp whole probe", "with": "salmon DNA 0.4 mg/ml", "baseline": "random background probes", "direction": "higher = stronger binding", "constant ends, left off below": "GCCTAGCAC … GTCTTGATTCGCTTGACGCTGCTG", "Construct (chain)": "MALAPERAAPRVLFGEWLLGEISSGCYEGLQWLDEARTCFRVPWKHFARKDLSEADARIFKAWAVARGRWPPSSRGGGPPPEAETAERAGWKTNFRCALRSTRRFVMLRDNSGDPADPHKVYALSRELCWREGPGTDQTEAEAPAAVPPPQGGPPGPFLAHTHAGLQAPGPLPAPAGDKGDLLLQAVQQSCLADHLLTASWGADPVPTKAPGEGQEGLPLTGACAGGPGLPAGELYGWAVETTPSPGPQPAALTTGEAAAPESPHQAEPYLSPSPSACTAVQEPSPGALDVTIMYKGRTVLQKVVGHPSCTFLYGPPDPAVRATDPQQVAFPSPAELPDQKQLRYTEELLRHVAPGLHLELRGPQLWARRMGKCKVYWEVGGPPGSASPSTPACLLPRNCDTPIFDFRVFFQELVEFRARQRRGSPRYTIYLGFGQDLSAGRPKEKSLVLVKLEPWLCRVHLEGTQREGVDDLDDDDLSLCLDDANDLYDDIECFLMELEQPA"}
{"Oligonucleotide": "TCACAGCTGTTTTTCTCACTGTGCTAG", "fitted relative affinity [z-score]": 1.06}
{"Oligonucleotide": "GACCGTCTCCTACTGCTGACGTGCTAG", "fitted relative affinity [z-score]": 0.986}
{"Oligonucleotide": "TCACATTTTCGTTTTGTACTGTGCTAG", "fitted relative affinity [z-score]": 12}
{"Oligonucleotide": "GAAGGACTGGGTCTCGGGACGTGCTAG", "fitted relative affinity [z-score]": -0.828}
{"Oligonucleotide": "TCAGCTTCTTTTTTATTACTGTGCTAG", "fitted relative affinity [z-score]": 0.788}
{"Oligonucleotide": "TCACTTCTGTTTTTGCTACTGTGCTAG", "fitted relative affinity [z-score]": 3.25}
{"Oligonucleotide": "GACGAACTGAGTCTGGAGACGTGCTAG", "fitted relative affinity [z-score]": -0.278}
{"Oligonucleotide": "GACAGTTTCCTTTTCCTGACGTGCTAG", "fitted relative affinity [z-score]": 6.41}
{"Oligonucleotide": "GACGAACTGGGGTTTCGACACGTGCTA", "fitted relative affinity [z-score]": 0.846}
{"Oligonucleotide": "CACGGTATCGACTTTCGGGACGTGCTA", "fitted relative affinity [z-score]": 3.31}
{"Oligonucleotide": "GACGATTTCGGTTATCGAGACGTGCTA", "fitted relative affinity [z-score]": 4.14}
{"Oligonucleotide": "CTTCATGTGCCTTTATATACGTGCTAG", "fitted relative affinity [z-score]": 0.901}
{"Oligonucleotide": "TTAGGTCTCGTTTTCGGTTAGTGCTAG", "fitted relative affinity [z-score]": 6.93}
{"Oligonucleotide": "GACGATATCAGGCTGGAGACGTGCTAG", "fitted relative affinity [z-score]": -0.145}
{"Oligonucleotide": "TCAGCTCTTTCGTTACTTACTGTGCTA", "fitted relative affinity [z-score]": 2.78}
{"Oligonucleotide": "GACGGACTGCTTCTCCTCACGTGCTAG", "fitted relative affinity [z-score]": 0.677}
{"Oligonucleotide": "TTAGGTCTCGACTATCGGTTAGTGCTA", "fitted relative affinity [z-score]": 0.187}
{"Oligonucleotide": "TTAGGCATCGACTATCGGTTAGTGCTA", "fitted relative affinity [z-score]": -0.174}
{"Oligonucleotide": "TCACTCCTCTCTCTTTCACTGTGCTAG", "fitted relative affinity [z-score]": 2.51}
{"data": "Set 4", "target": "RNA binding protein fox-1 homolog 2, RRM domain, GST-SBP tag (RBFOX2, Homo sapiens, UniProt O43251-10, residues 100-194)", "method": "RNA Bind-n-Seq", "molecule type": "RNA", "sample": "in vitro", "tested at": "365 nM", "setting": "natural RNA segment, single round, ends assumed", "baseline": "no-protein control", "direction": "higher = stronger binding", "Target sequence (chain)": "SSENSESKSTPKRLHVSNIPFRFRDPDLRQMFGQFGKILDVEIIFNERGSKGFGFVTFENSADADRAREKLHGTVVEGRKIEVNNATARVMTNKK"}
{"Oligonucleotide": "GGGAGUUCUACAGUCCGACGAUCCCUUUUCCACACUCCUCCUCCGACAGCAGCUCCCUGGGCAGUGGCCUGGUCUCACCGUGUGCAGCCUUGUGGUUUAUGCUUAAAUGUACAUUUUCCUGCUGGUAAAAGGAUGGAAUUCUCGGGUGCCAA", "RBNS enrichment (R)": 0.603}
{"Oligonucleotide": "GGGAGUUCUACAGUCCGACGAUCAGAAAUUUCUAAGCAGCAAAGCAUUCAUGAGGUGACUUGGGUGCUGUUAAAAGCAUUCAGUUUUAAAAGGGAAACAGACUAUAAAAGUUUGGAAAAUUUGCAGCCUGAUGUGGAAUUCUCGGGUGCCAA", "RBNS enrichment (R)": 0.426}
{"Oligonucleotide": "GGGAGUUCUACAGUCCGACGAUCGCCUGGCUCAGACUGGAAGGGCUGGGGACCGAGGGCUCCCCUGCCUCUGUUCUCCUUUCUGACCCACUGGGAUUUGCUAGCAGGCUGCCCCAGCCCCAUCACCGAAACACUGGAAUUCUCGGGUGCCAA", "RBNS enrichment (R)": 0.733}
{"Oligonucleotide": "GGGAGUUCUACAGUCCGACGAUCGGAAAAAAAAGACAAAUUAAAGGAGGGGCUAGGGGAGAAGCUGCAGCUGGAGCUGAAGGCUCGAUCUUGUGAACCCCUAAAUCCGCUCCCUCCUAACAGCACGGAUUCUCUGGAAUUCUCGGGUGCCAA", "RBNS enrichment (R)": 0.422}
{"Oligonucleotide": "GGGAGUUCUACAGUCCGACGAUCCCCCCAGGUCAGGUCCGCGCCCUUUAAAUUGGCCGCUUGGCUUUUGCCUUUGGUCCUCUUGGACAGAGAGCAGGCUCAGGCCAUUGACAUCACAGUUCUUCCUUUUAACUUGGAAUUCUCGGGUGCCAA", "RBNS enrichment (R)": 0.275}
{"Oligonucleotide": "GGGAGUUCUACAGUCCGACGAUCGCUGAGAAGGAGAGUCACAGGUCCUGGAGAUAGAAAUGGAGGUGGCCUGCUGAUAAGAUACCUGCUGGUGAGCCCUGAUGUGGGACAUACGUGCAGAUAGGGGGCAGGGUUGGAAUUCUCGGGUGCCAA", "RBNS enrichment (R)": 1.01}
{"Oligonucleotide": "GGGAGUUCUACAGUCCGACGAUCUCUCCUUUUUAACACACUUUCUUAGGUCUAUGGAAACUACAGGGUUGCCACUGAAAUGUUUUUUUACUUGUUGAUAGUGUCAGGGCCCCCCUUCCAUCCCCAUGGGCUUGUGGAAUUCUCGGGUGCCAA", "RBNS enrichment (R)": 0.416}
{"Oligonucleotide": "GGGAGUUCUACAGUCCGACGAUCACUGUGCUAGCUCUUGGGUUGAGGAAUGGAAUGGGUAGCCUUCUGCUUACUGGAGAUGCACAGAGAAACAUGGCUGAAAACAGCUUUAAAAAGAACAUGUCUUUGGGUUCUGGAAUUCUCGGGUGCCAA", "RBNS enrichment (R)": 1.37}
{"note": "Excerpt of the above (set 2):"}
{"Oligonucleotide": "AAACCGGA", "E-score": -0.0426}
{"Oligonucleotide": "CAAATCAC", "E-score": -0.0268}
{"Oligonucleotide": "AGAGGCCA", "E-score": -0.105}
{"Oligonucleotide": "AGCCCGTC", "E-score": 0.334}
{"Oligonucleotide": "ACACCTAC", "E-score": 0.0353}
{"Oligonucleotide": "CAAATAGG", "E-score": -0.128}
{"Oligonucleotide": "ACATAAGT", "E-score": -0.206}
